{"data": "Results gathered from unrelated publications", "T1": "RNA G4, parallel dimeric G-quadruplex (Homo sapiens); GGGGCCGGGGCC", "T2": "TERRA RNA G4, 5-benzofuranyl uridine in one loop (Homo sapiens); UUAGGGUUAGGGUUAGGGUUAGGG", "T3": "ZTP riboswitch RNA (Fusobacterium ulcerans); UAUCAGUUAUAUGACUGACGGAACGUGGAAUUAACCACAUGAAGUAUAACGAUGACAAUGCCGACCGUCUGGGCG", "T4": "RNA riboswitch, SAM-II riboswitch; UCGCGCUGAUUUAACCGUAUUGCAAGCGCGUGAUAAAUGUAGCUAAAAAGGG", "T5": "dsDNA, self-complementary, T9 linker hairpin; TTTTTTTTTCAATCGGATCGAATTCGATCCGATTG", "T6": "dsDNA, abasic THF site, position 11; chain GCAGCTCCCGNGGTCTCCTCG; chain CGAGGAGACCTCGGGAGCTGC", "T7": "RNA duplex, 2'-OMe, pseudouridine, bulge, abasic (Homo sapiens); chain CAGAGUAAGUAU; chain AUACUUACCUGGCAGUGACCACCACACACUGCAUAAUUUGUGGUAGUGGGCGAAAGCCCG", "T8": "T-box antiterminator RNA; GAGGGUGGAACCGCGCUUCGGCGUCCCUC", "T9": "dsDNA, CGG G:G mismatch, 11-mer duplex; chain CTAACGGAATG; chain CATTCGGTTAG", "T10": "DNA aptamer 32 nt truncation; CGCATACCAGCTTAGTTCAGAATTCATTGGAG", "T11": "DNA aptamer; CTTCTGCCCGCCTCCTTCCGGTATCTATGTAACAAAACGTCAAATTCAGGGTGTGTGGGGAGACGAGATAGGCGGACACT", "note": "Compare with care: the assays were run in different laboratories.", "chain of UniProt Q9HB20 (whole entry, looked up)": "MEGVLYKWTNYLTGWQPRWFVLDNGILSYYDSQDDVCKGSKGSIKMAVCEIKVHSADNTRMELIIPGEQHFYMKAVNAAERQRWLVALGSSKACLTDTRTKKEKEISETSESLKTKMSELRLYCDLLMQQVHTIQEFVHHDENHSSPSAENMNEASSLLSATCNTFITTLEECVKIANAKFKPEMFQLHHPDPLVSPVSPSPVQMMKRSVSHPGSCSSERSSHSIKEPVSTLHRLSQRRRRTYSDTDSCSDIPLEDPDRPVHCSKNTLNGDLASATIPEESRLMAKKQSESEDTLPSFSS"}
{"Substance": "CC(=O)Cc1cc2c(c(O)c1C(=O)O)-c1c(c(O)c3oc4c(O[C@@H]5OC(C(=O)O)=C[C@H](O)[C@H]5O)cccc4c(=O)c3c1O)CC2", "target": "T1, RNA G4, parallel dimeric G-quadruplex (Homo sapiens)", "assay": "fluorescence intensity titration", "conditions": "pH 6.8, KCl 8 mM, one site with Hill slope", "Kd": "3000 µM"}
{"Substance": "CN(C)c1ccc(Nc2c3ccc(NC(=O)CCN4CCCC4)cc3nc3cc(NC(=O)CCN4CCCC4)ccc23)cc1", "target": "T2, TERRA RNA G4, 5-benzofuranyl uridine in one loop (Homo sapiens)", "assay": "fluorescence titration", "conditions": "pH 7.5, 20 °C, KCl 100 mM, apparent, parallel G-quadruplex", "Kd": "0.294 µM"}
{"Substance": "NC(=O)c1ncn(-c2ccncc2)c1N", "target": "T3, ZTP riboswitch RNA (Fusobacterium ulcerans)", "assay": "ITC", "conditions": "pH 7.4, 37 °C, KCl 150 mM", "Kd": "1 µM"}
{"Substance": "C[S+](CC[C@H](N)C(=O)O)C[C@H]1O[C@@H](n2cnc3c(N)ncnc32)[C@H](O)[C@@H]1O (stereo partly drawn)", "target": "T4, RNA riboswitch, SAM-II riboswitch", "assay": "microscale thermophoresis", "conditions": "pH 7.5, KCl 100 mM, single-site fit", "Kd": "0.138 µM"}
{"Substance": "CN1CCN(c2ccc3nc(-c4ccc(N5C(=O)c6ccc7c8c(ccc(c68)C5=O)C(=O)N(c5ccc(-c6nc8ccc(N9CCN(C)CC9)cc8[nH]6)cc5)C7=O)cc4)[nH]c3c2)CC1", "target": "T5, dsDNA, self-complementary, T9 linker hairpin", "assay": "SPR", "conditions": "KCl 100 mM, two-site fit", "Kd": "36.6 µM"}
{"Substance": "Cc1nc2nc(N)ccc2c(C)c1C", "target": "T6, dsDNA, abasic THF site, position 11", "assay": "fluorescence titration", "conditions": "pH 7.0, 20 °C, NaCl 100 mM", "Kd": "0.111 µM"}
{"Substance": "CC1(C)CC(Oc2ccc(-c3ccc(-c4cn[nH]c4)cc3O)nn2)CC(C)(C)N1", "target": "T7, RNA duplex, 2'-OMe, pseudouridine, bulge, abasic (Homo sapiens)", "assay": "microscale thermophoresis", "conditions": "pH 7.0, 25 °C, NaCl 200 mM, with U1-C protein", "Kd": "2.69 µM"}
{"Substance": "CC(=O)c1ccc(NC(=O)OC[C@H]2OC(=O)N[C@@H]2CN2CCN(c3ccccc3)CC2)cc1", "target": "T8, T-box antiterminator RNA", "assay": "FRET binding titration", "conditions": "100 nM, 130 min, pH 6.5, 25 °C, NaCl 50 mM, single-site fit, added: MgCl2 5 mM", "Kd": "3 µM"}
{"Substance": "phosphatidylinositol 4-phosphate", "target": "PLEKHA3, PH domain (Homo sapiens, UniProt Q9HB20)", "test system": "DMPC/DHPC bicelles", "conditions": "pH 6.5, estimate, saturation not reached", "Kd": "200 to 300 µM"}
{"Substance": "Cc1ccc2ccc(NC(=O)CCNCCC(=O)Nc3ccc4ccc(C)nc4n3)nc2n1", "target": "T9, dsDNA, CGG G:G mismatch, 11-mer duplex", "assay": "ITC", "conditions": "apparent, one-site model", "Kd": "0.391 µM"}
{"Substance": "NC[C@H]1O[C@H](O[C@H]2[C@H](O)[C@@H](O[C@H]3O[C@H](CO)[C@@H](O)[C@H](N)[C@H]3O)[C@H](N)C[C@@H]2N)[C@H](O)[C@@H](O)[C@@H]1O", "target": "T10, DNA aptamer 32 nt truncation", "assay": "MST", "conditions": "25 °C, NaCl 100 mM", "Kd": "400 µM"}
{"Substance": "CC(C)=CCC[C@](C)(O[C@@H]1O[C@H](CO[C@@H]2O[C@H](CO)[C@@H](O)[C@H](O)[C@H]2O)[C@@H](O)[C@H](O)[C@H]1O)[C@H]1CC[C@]2(C)[C@@H]1[C@H](O)C[C@@H]1[C@@]3(C)CC[C@H](O[C@@H]4O[C@H](CO)[C@@H](O)[C@H](O)[C@H]4O[C@@H]4O[C@H](CO)[C@@H](O)[C@H](O)[C@H]4O)C(C)(C)[C@@H]3CC[C@]12C", "target": "T11, DNA aptamer", "assay": "fluorescence of eluted aptamer", "conditions": "pH 8.5, room temperature", "Kd": "5.6 µM"}
{"note": "Repeated from above:"}
{"Substance": "CN1CCN(c2ccc3nc(-c4ccc(N5C(=O)c6ccc7c8c(ccc(c68)C5=O)C(=O)N(c5ccc(-c6nc8ccc(N9CCN(C)CC9)cc8[nH]6)cc5)C7=O)cc4)[nH]c3c2)CC1", "target": "T5, dsDNA, self-complementary, T9 linker hairpin", "assay": "SPR", "conditions": "KCl 100 mM, two-site fit", "Kd": "36.6 µM"}
